Assay results pooled from the literature.
Numbered parts are unrelated; each lists some results of a single study.

Set 1
Target: Sal-like protein 4, full length isoform B (SALL4, Homo sapiens, UniProt Q9UJQ4-2, residues 1-616)
Technique: universal PBM
Form: double-stranded DNA, one strand shown
Sample: in vitro
Concentration: not given
Notes: 8-mer, flanks averaged, mean of replicates
Direction: higher = stronger binding
Target sequence (chain): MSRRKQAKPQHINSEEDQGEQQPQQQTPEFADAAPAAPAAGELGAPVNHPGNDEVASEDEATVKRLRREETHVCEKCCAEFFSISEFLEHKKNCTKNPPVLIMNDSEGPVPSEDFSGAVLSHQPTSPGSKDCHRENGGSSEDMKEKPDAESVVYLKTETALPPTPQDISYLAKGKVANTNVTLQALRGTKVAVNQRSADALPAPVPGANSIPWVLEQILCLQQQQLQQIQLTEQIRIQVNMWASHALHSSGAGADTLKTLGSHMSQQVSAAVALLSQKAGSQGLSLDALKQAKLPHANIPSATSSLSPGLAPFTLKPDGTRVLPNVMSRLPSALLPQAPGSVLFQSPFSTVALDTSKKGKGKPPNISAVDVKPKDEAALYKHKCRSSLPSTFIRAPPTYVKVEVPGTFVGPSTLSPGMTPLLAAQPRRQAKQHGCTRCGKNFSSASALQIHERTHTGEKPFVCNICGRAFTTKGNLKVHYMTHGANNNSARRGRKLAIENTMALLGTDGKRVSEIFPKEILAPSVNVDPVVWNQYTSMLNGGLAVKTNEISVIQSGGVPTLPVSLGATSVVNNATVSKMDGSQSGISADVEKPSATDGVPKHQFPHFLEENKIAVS
| Oligonucleotide | E-score |
| --- | --- |
| AACCAAAC | -0.121 |
| CGTATAAA | 0.305 |
| AGTCATGG | 0.00515 |
| GGGCTAAC | -0.25 |
| ATCTCAAT | 0.201 |
| AAGGAGCC | -0.226 |
| AATGTAAA | 0.275 |
| AATAACAG | 0.321 |

Set 2
Target: PABPC1L2, full length, GST fusion (mouse, UniProt A0ABA7IW68)
Technique: RNAcompete
Form: RNA
Sample: in vitro
Concentration: 20 nM
Notes: 7-mer, probes averaged, single round
Baseline: mean of 7-mers
Direction: higher = stronger binding
Residues (chain): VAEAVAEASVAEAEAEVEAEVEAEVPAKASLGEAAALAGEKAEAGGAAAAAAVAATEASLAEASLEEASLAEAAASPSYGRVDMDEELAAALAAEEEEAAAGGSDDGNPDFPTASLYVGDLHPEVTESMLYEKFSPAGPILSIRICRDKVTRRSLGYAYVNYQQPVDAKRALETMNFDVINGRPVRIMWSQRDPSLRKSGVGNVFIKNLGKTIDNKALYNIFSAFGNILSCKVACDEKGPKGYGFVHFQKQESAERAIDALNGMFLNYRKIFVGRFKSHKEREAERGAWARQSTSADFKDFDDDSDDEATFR
| Oligonucleotide | 7-mer Z-score |
| --- | --- |
| UUGAAGU | -0.186 |
| CAUAUAC | -0.11 |
| GCCACAU | -0.0736 |
| GGAAUGA | 0.0152 |
| AUCAAAU | 0.117 |
| UAGCCCC | -0.354 |
| ACUCGUU | -0.398 |
| UACAACU | -0.159 |

Set 3
Cell line: HEK-293T
Effect on: pseudovirus infection
Organism: VSV pseudotyped with SARS-CoV-2 spike
Concentration: 10 µM
Time: 16 h
Baseline: vehicle-treated
| SMILES | GFP-positive cells |
| --- | --- |
| COC(=O)N[C@H](C(=O)N1CCC[C@H]1c1nc(-c2ccc(-c3ccc(-c4c[nH]c([C@@H]5CCCN5C(=O)[C@@H](NC(=O)OC)C(C)C)n4)cc3)cc2)c[nH]1)C(C)C | 85.7% |
| COC(=O)CCc1ccc(OCC(O)CNC(C)C)cc1 (stereo not shown) | 93.8% |
| C[C@@H](c1ncncc1F)[C@](O)(Cn1cncn1)c1ccc(F)cc1F | 78.2% |

Set 4
Target: Replicase polyprotein 1ab, main protease (rep, Severe acute respiratory syndrome coronavirus 2, UniProt P0DTD1)
Effect on: enzyme activity
Mode: inhibitor
Concentration: 20 µM
Notes: primary screen
| SMILES | inhibition |
| --- | --- |
| CCOC(=O)/C=C(C)/C=C/C=C(C)/C=C/c1c(C)cc(OC)c(C)c1C | 25.6% |
| O=C(N/N=C/c1ccc([N+](=O)[O-])o1)c1cc([N+](=O)[O-])cc([N+](=O)[O-])c1O | 63.8% |
| COc1cc(O)c2c(c1)C(=O)c1cc(C)cc(O)c1C2=O | 76.3% |

Set 5
Target: Histone acetyltransferase KAT6A, both winged helices, GST fusion (KAT6A, Homo sapiens, UniProt Q92794, residues 1-181)
Technique: protein binding microarray
Form: double-stranded DNA, one strand shown
Sample: in vitro
Concentration: not given
Notes: 8-mer, flanks averaged, mean of 2 arrays, mostly near background
Baseline: not given
Direction: higher = stronger binding
Construct (chain): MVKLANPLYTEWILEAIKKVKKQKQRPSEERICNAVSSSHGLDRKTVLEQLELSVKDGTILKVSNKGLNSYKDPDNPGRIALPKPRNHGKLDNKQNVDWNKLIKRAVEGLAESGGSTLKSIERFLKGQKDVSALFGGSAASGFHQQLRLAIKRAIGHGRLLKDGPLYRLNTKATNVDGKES
| Oligonucleotide | E-score |
| --- | --- |
| ATCCTACC | 0.00147 |
| ACGCATTA | 0.0386 |
| AAGTAACT | -0.0895 |
| CCTCCGGC | 0.117 |
| ATGAATCC | 0.00355 |
| CATAGCAG | -0.132 |
| CTATCAAA | -0.131 |
| GGCACTAC | -0.0474 |

Set 6
Target: Replicase polyprotein 1ab, nsp13 helicase (rep, Severe acute respiratory syndrome coronavirus 2, UniProt P0DTD1)
Mode: inhibitor
Concentration: 20 µM
| Structure (SMILES) | inhibition [%] |
| --- | --- |
| C[C@H]1C[C@H]2[C@@H]3CCC4=CC(=O)C=C[C@]4(C)[C@@]3(Cl)[C@@H](O)C[C@]2(C)[C@@]1(O)C(=O)CO | -2.35 |
| c1ccc(-c2nn3c(c2-c2ccnc4cc(OCCN5CCOCC5)ccc24)CCC3)nc1 | 2 |
| CC(=O)N(CC(O)CO)c1c(I)c(C(=O)NCC(O)CO)c(I)c(C(=O)NCC(O)CO)c1I (mixture of isomers) | -0.96 |
| O=C1N=C(O)NC1(c1ccccc1)c1ccccc1 | -2.31 |
| O=C(Nc1ccc(Oc2ccc(Cl)cn2)c(Cl)c1)c1ccccn1 | 10.1 |
| Cc1cccc(C)c1NC(=O)C1CCCCN1C (stereo not shown) | 1.19 |
| CCNC(=O)Nc1ccc(-c2nc3c(c(N4CCOC[C@@H]4C)n2)CCN(C2COC2)C3)cc1 | 3.06 |
| COc1cc(CN2CCN(c3ccc(F)cc3)CC2)cc(OC)c1OC | 3.59 |
| O=S(=O)(O)c1cc(O)ccc1O | 5.75 |
| O=C(O)C(=O)c1cn(Cc2ccccc2)c2ccc(-c3ccc(OC(F)(F)F)cc3)cc12 | 10.1 |
| Nc1nc(=O)c2c([nH]1)NC[C@H](CNc1ccc(C(=O)N[C@@H](CCC(=O)O)C(=O)O)cc1)N2C=O | 4.78 |
| C[C@@H]1[C@H](O)[C@@H](C)/C=C/C=C/CC/C=C/C=C/C=C/C=C/[C@H](O[C@@H]2O[C@H](C)[C@@H](O)[C@H](N)[C@@H]2O)C[C@@H]2O[C@](O)(C[C@@H](O)[C@H](O)CC[C@@H](O)C[C@@H](O)C[C@@H](O)CC(=O)O[C@H]1C)C[C@H](O)[C@H]2C(=O)O | 6.67 |
| CN(C)CCOC(C)(c1ccccc1)c1ccccn1 (stereo not shown) | 2.3 |
| NC(=O)OC[C@@H]1[C@H](NC(=O)/C(=N\OCC(=O)O)c2csc(N)n2)C(=O)N1S(=O)(=O)O | 4.97 |
| CC(C)(C)c1cc(C(=O)/C(C#N)=N/Nc2cccc(Cl)c2)no1 | 5.85 |
| CC1(C)[C@@H]2C[C@H]1[C@@](C)(O)[C@@H](O)C2 | 8.47 |
| CNc1nc(NCc2ccc(NS(C)(=O)=O)cc2Cl)cc(-c2ccccn2)n1 | -0.29 |
| N[C@@H]1CCCN(c2c(/C=C3\SC(=O)NC3=O)cccc2-c2ccccc2)C1 | 12.6 |
| CCCC[C@@H](NC(=O)[C@@H](Cc1cn(C(=O)OC)c2ccccc12)NC(=O)[C@H](CC(C)(C)C)NC(=O)N1[C@H](C)CCC[C@@H]1C)C(=O)O | 3.55 |
| CCOc1ccc(NC(C)=O)cc1 | 1.21 |
| CC(=O)N[C@H]1[C@H]([C@H](O)[C@H](O)CO)OC(O)(C(=O)O)C[C@@H]1O (stereo partly shown) | 2.48 |
| CNC(=O)ON(C(C)=O)C(=O)NC | 59.9 |
| Cc1oc(-c2ccccc2)nc1CCC(=O)c1ccc(CC2SC(=O)NC2=O)cc1 (stereo not shown) | -2.21 |
| C=C[C@H]1CN2CC[C@H]1C[C@@H]2[C@@H](O)c1ccnc2ccccc12 | -29.7 |
| O=C(O)C[C@H]1CC[C@H](c2ccc(NC(=O)c3nnc(Nc4ccc(F)c(F)c4)o3)cc2)CC1 | -2.12 |

For quick reference, copied from above (set 1):
| Oligonucleotide | E-score |
| --- | --- |
| AGTCATGG | 0.00515 |
| GGGCTAAC | -0.25 |
| ATCTCAAT | 0.201 |
| AAGGAGCC | -0.226 |
